Published values of several laboratories.
Every numbered part comes from another study and shows a few of its results, in no order. Changes are numbered by the printed parent chain.

Set 1 — target: CCNF, cyclin fold, Cln2 fusion (human); technique: yeast growth competition, sequencing; matrix: yeast; notes: strong parent motif; relative to: not given; direction: higher = stronger binding; quantity: normalised enrichment score
Starting sequence: SCAPER docking peptide (human); SNARRSLNFGGST
N8K: 7.93
S12M: 6
A3Y: 4.51
N2K: 6.72
S6D: 1.09
S12D: 7.61
T13H: 7.56
G10H: 5.82
L7T: 1.22
R5K F9L: 1.07
R4S: 3.34
G11Q: 6.84
A3R: 0.286
S6W: 7.39
A3Q: 0.938
S6L: 5.45
N8Q: 6.97
R4T: 3.16
R5C: 0.514
R5A: 0.551
R4E: 0.177
L7W: 0.434
F9G: 0.255
L7H: 1.03

Set 2 — technique: protein binding microarray; form: double-stranded DNA, one strand shown; matrix: in vitro; concentration: not given; relative to: not given; direction: higher = stronger binding; quantity: E-score
Target: Histone acetyltransferase KAT6A, winged helix 2, GST fusion (KAT6A, Homo sapiens, UniProt Q92794, residues 85-181)
Notes: 8-mer, flanks averaged, mean of 2 arrays, mostly near background
Construct (chain): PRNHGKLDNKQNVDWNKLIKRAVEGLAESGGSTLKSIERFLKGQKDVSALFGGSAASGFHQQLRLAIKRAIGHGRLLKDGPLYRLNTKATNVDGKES
CCCAGGTA: -0.272
ATTGAAAG: 0.122
AGGCGACG: 0.0111
CGACTTCC: -0.0934
AACCCGAA: 0.115
AATATCTA: -0.126
ATTACGGG: -0.0809
ACGGTTAA: -0.0256
GCATCCTA: -0.0689
ATGAGCTA: 0.0156
GGGTTATA: -0.281
AGCATAAC: -0.0319
CCGTGCAC: -0.00217
TTACGCAA: 0.0729
CTTTCATA: 0.0066
ATAAGTAG: -0.0634
ATATCCGC: 0.182
CGCTAATA: 0.0222
ATAGCCAG: -0.125
ACCGAAGG: 0.0717
ACACGAGT: -0.0445
GAATATCC: 0.0691
GAGACGGC: 0.177

Set 3 — technique: RNA Bind-n-Seq; form: RNA; matrix: in vitro; concentration: not given; relative to: input RNA pool; direction: higher = stronger binding; quantity: bound/input enrichment
Target: RING finger protein unkempt homolog, zinc fingers 1-6, GST-SBP tag (UNK, Homo sapiens, UniProt Q9C0B0, residues 30-357)
UniProt Q9C0B0, sequence (30-357, looked up): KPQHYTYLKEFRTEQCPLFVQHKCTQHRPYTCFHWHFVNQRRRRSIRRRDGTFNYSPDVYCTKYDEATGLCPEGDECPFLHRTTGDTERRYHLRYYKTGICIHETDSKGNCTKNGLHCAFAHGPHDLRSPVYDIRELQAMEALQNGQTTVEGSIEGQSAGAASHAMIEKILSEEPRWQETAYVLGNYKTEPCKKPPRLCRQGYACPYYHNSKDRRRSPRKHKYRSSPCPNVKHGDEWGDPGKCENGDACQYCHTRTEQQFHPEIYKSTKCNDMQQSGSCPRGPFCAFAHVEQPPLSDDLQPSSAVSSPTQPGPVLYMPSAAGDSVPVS
Notes: RNA with constant flanks, human-mouse chimeric sites, ends assumed
All sequences stand within: GGGAGUUCUACAGUCCGACGAUC … CAACAGAGGAUUGAGCAUCA
UCUUUAAAAAAAAAAUUACAGGAAAAUACAGUGCUUUCCCUCCCAUAGGUCCAGGUUCAAGCUCAAAGAGCAAAGGCUUUGCACGGAGCUCAAACAUCUGAUGAAGAAAGAUUUCUGAGA: 0.71 ratio
GCAAAGGAUGAUGAGGCAGCUGCAGUUGCCCUUUCCUCUCUCGUUCAUGCUUUGGAUGAGUUAAACAUGGUCGCCAUCGUCCGAUAUGCUUAUGACAAAAGAGCUAAUCCUCAAGUUGGU: 0.149 ratio
ACCAUUUCUGAAUACACGGCUUUGUGUGUAGUUCACUUACGGUAUUAAAUUAUUAUUCUGCUUAGCUUAUAAUAAGGAUUACAAUUGUUAAAGAGGUUACUGAAUGUUACUCUGAAACUU: 0.509 ratio
AGAAUCUUGGGACUGUUUUACUUAAUUGGUCAUUGAUAGCUUAACAAGCAUGGAGAUAAGAUUAGAAAUCUUGACAUCAACAGGUAUUAAGCAGAAAAAACCAUGGCCACGUGUCUCCUG: 0.102 ratio
GAGUCGAGCAAACUUGAAACAAUUCGUUAUCUUGCAGCCUCAGUGUUCACUUGCUUGGCGAUAGCAUUGGGGUUUUAUAUAGAUUCUGGAAGUAGUAGACGAUGAUGCUGCCGCUGCUGC: 0.608 ratio
AAAGUGAUGACUAUGUUUGUCCAACGACAGGUAUUUUCGGAGAGCAAAGAUGAGAUUGCUUUAGUCCUCUAUGGCACAGAUGGCACUGAUAAUGCCCUUGCUGGCAAGGACCAGUAUCAG: 0.19 ratio
AUGCAGUAUGAGACCAACAGCAUGGACUUCAAAGUUGGGGCAGAUGGGACAGUCUUCGCCACCCGGGAGCUGCAGGUCCCCUCCGAGCAGGUGGCGUUCACGGUGACUGCGCGGGAAAGC: 0.193 ratio
CUGGCCUGGCCCUCCCCAGGGGCCUCCUUUCGUAUAGUCACUGCUUCUGCAUCAGAUAUUUUUAGCUGCAACUCCCUACUGGGUGGGGCACCUAUCUCAGGCAGAAGGUUUUGGUACCCU: 0.305 ratio

Set 4 — technique: RNA Bind-n-Seq; form: RNA; matrix: in vitro; concentration: 200 nM; notes: whole 134-nt RNA, ends assumed; together with: 150 mM LiCl; relative to: input library; direction: higher = stronger binding; quantity: log2 enrichment; each molecule: 7-deaza-guanosine replaces G
Target: Ras GTPase-activating protein-binding protein 1, full length (G3BP1, Homo sapiens, UniProt Q13283)
UniProt Q13283, sequence (whole entry, looked up): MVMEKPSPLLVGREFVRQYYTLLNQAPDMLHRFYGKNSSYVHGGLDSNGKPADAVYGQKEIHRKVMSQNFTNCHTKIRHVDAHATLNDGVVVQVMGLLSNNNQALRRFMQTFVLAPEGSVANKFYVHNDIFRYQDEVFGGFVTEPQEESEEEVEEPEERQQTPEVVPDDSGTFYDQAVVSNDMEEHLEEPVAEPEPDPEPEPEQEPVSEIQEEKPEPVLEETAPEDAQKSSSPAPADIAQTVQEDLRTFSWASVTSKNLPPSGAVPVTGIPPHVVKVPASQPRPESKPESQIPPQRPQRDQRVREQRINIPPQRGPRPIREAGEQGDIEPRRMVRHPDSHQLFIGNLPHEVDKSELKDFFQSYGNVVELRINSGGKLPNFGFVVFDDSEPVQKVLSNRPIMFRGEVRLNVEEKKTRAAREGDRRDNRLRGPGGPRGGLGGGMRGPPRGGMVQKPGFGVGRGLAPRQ
All sequences stand within: GGGAGUUCUACAGUCCGACGAUC … UGGAAUUCUCGGGUGUCAAGG
UCCUGUGCUACACAUCGUAUGUACCGAAUCGGGGUGGGGUUUUUGGGGUUUUUUUGGGGAAAGUAUUAUGUUACGCCGUUCGGAUCUGCA: 0.335
ACCAUGCAGGUGGGCAUCUUUGGGAAGUGGGGCAAGGGGGGGAUAGGGAGGGGGGUAACACUUUGGGAACAGGUGGUCCCAGGUCGUUUG: 0.0577
CAAGUCCUGUGCUACACAUCGUAUGUACCGAAUCGGGGAAGGGAAGGGGAAGGGGAAAGUAUUAUGUUACGCCGUUCGGAUCUGCACUUC: 0.000699
CCUGUGCUACACAUCGUAUGUACCGAAUCGGGAAAAAGGGAAAAAAAGGGAAAAAAAGGGAAAGUAUUAUGUUACGCCGUUCGGAUCUGC: 0.132
CUGUGCUACACAUCGUAUGUACCGAAUCGGGUUUUUUUGGGUUUUUUUGGGUUUUUUUGGGAAAGUAUUAUGUUACGCCGUUCGGAUCUG: 1.15
CCUCAAGUCCUGUGCUACACAUCGUAUGUACCGAAUCGGAGGUUUGGAAAGGAAAGUAUUAUGUUACGCCGUUCGGAUCUGCACUUCCAG: -0.415
GUCCUGUGCUACACAUCGUAUGUACCGAAUCGGGGCCCCGGGGCCCCGGGGCCCCGGGGAAAGUAUUAUGUUACGCCGUUCGGAUCUGCA: -1.89
CAAGUCCUGUGCUACACAUCGUAUGUACCGAAUCGGUUUGGUUUGGGGUUUGGGGAAAGUAUUAUGUUACGCCGUUCGGAUCUGCACUUC: -0.858

Repeated from above (set 2):
CGACTTCC: -0.0934
AACCCGAA: 0.115
AATATCTA: -0.126
ATTACGGG: -0.0809
